# Measured values from different studies.
# Each line is one published result; not all experiments were run side by side. Several values in a cell are separate wells, animals, samples, runs or records. ± marks the error that the study gave.
SMILES,assay,test system,conditions,scale,quantity,result
COc1cc(C=CC(=O)Nc2ccc(-c3ccc(NC(=O)C=Cc4ccc(O)c(OC)c4)cc3)cc2)ccc1O,shake flask UV/Vis,n-octanol/water,,,logP,5.12
O=C(NS(=O)(=O)c1cccs1)c1cc2ccccc2n1Cc1ccc(Br)c2ccccc12,,"mouse, plasma","oral, 2 mg/kg",,MRT(0-last),1 h
Cc1noc(C)c1Cn1cc(N2C(=O)CN(Cc3cccc(O[C@@H]4O[C@H](C(=O)O)[C@@H](O)[C@H](O)[C@H]4O)c3)C2=O)cn1,,"Sprague-Dawley rat, male","oral, 30 mg/kg of parent drug, 8 h",,plasma concentration,188 ng/mL
O=C(NNCc1ccccc1)C1(C(F)(F)F)CC1,,PBS,"2 h, pH 7.4, 25 °C",,solubility,≥ 400 µM
C=C(NC(=O)c1csc(-c2nc3c(cc2O)-c2nc(cs2)C(=O)NC(C(C)O)C(=O)NC(=C(C)OC)c2nc(cs2)C(=O)NC2c4nc(cs4)C(=O)NC(COC(=O)c4c5c6c(cccc6n4O)COC(=O)C(OC4CC(C)(O)C(N(C)C)C(C)O4)C2OC5)c2nc-3cs2)n1)C(N)=O (centres unmarked),,"cynomolgus monkey, male, plasma","intravenous infusion, 1.5 mg/kg twice daily, 0 to 30 h",,AUC(0-last),26900 ng·h/mL
CCCCCCCCCCCCCC(=O)N[C@@H](Cc1ccccc1)C(=O)N[C@H](C(=O)N[C@@H](CCC(=O)O)C(=O)N[C@H](C(=O)N1CCC[C@H]1C(=O)N[C@H](C(=O)N[C@H](C(=O)O)[C@@H](C)CC)[C@@H](C)O)[C@@H](C)CC)[C@@H](C)O,,,,,solubility limit,≤ 200 µM
CN1CCC[C@]1(C)/C=C/S(=O)(=O)NC(=O)Nc1c2c(cc3c1CCC3)CCC2,"refers to: Pyrexia, possibly related",human,"oral, 100 mg twice daily, 14 days, multiple ascending dose",,subjects with adverse event,0%
COc1cccc(OC)c1-c1cc(C(=O)NC2(C(=O)O)C3CC4CC(C3)CC2C4)nn1-c1ccc(C(=O)N(C)CCCN(C)C(=O)[C@H](CCCCNC(=O)[C@H](CC(C)C)NC(=O)C2OC2C(=O)O)NC(=O)CN2CCN(CC(=O)[O-])CCN(CC(=O)[O-])CCN(CC(=O)[O-])CC2)cc1C(C)C.[177Lu+3] (mixture of isomers),,mouse HT-29 xenograft,"168 h, biodistribution",relative to: tumour over large intestine,tumour-to-large intestine ratio,10.2
C=CC(=O)N1CCCC(n2c(=O)c3ncccc3n(Cc3ccc(Oc4ccccc4)cc3)c2=O)C1 (centres unmarked),,"male BALB/c mouse, plasma","oral, 200 mg/kg, 5 min",,concentration,9800 ng/mL
CC(C)=CCC1=C([O-])C(=O)c2ccccc2C1=O.CC(C)=CCC1=C([O-])C(=O)c2ccccc2C1=O.Cc1cc2cccnc2c2ncccc12.O.[Cu+2],cyclic voltammetry,CH2Cl2,"0.1 mM, added: 0.1 M Bu4NPF6",relative to: Ag/AgCl (sat. KOH),anodic peak potential,-1.39 V
COc1cccc(OC)c1-c1cc(C(=O)NC2(C(=O)O)C3CC4CC(C3)CC2C4)nn1-c1ccc(C(=O)N(C)CCCN(C)CCCN(C)C(=O)[C@H](CCCCNC(=O)[C@H](CC(C)C)NC(=O)C2OC2C(=O)O)NC(=O)CN2CCN(CC(=O)[O-])CCN(CC(=O)[O-])CCN(CC(=O)[O-])CC2)cc1C(C)C.[177Lu+3] (mixture of isomers),,"mouse, HT-29 xenograft","4 h post injection, biodistribution",relative to: tumour over lung uptake,tumour-to-lung ratio,6.11
C=CC(=O)Nc1cc(Nc2nccc(-c3c[nH]c4ccccc34)n2)c(OC)cc1N(C)CCN(C)C,storage stability,human dried blood spot,"10 d, -80 °C, LLOQ level",,recovery,82.9%
CC(C)C[C@H](NC(=O)[C@H](CCCN)NC(=O)CNC(=O)[C@@H](NC(=O)[C@H](C)NC(=O)[C@@H]1CSCSC[C@H](NC(=O)CC[C@H](N)C(=O)O)C(=O)N[C@@H](CC(N)=O)C(=O)N[C@@H]([C@@H](C)O)C(=O)N[C@@H](C)C(=O)N[C@@H]([C@@H](C)O)C(=O)N1)[C@@H](C)O)C(=O)N[C@@H](C)C(=O)N[C@@H](CCC(=O)O)C(=O)N[C@@](C)(Cc1ccccc1)C(=O)N[C@@H](CC(C)C)C(=O)N[C@H](C(=O)N[C@@H](CCCNC(=N)N)C(=O)N[C@@H](CO)C(=O)N[C@@H](CO)C(=O)N[C@@H](CC(N)=O)C(=O)N(C)[C@@H](CC(N)=O)C(=O)N[C@@H](Cc1ccccc1)C(=O)NCC(=O)N1CCC[C@H]1C(=O)N[C@@H](CCCCNC(=O)CC[C@H](NC(=O)CC[C@H](NC(=O)CCCCCCCCCCCCCCCCCCC(=O)O)C(=O)O)C(=O)O)C(=O)N[C@@H](CC(C)C)C(=O)N1CCC[C@H]1C(=O)N1CCC[C@H]1C(=O)N[C@H](C(=O)N[C@@H](CCC(=O)O)C(=O)N[C@H](C(=O)NCC(=O)N[C@@H](CO)C(=O)N[C@@H](CC(N)=O)C(=O)N[C@H](C(=O)N[C@@H](Cc1ccc(O)cc1)C(N)=O)[C@@H](C)O)C(C)C)[C@@H](C)O)C(C)C,,healthy human,"subcutaneous, 0.4 mg",,%AUC extrapolated,5.6%
COc1ccnc(C(=O)N[C@H]2COC(=O)[C@H](Cc3ccccc3)[C@@H](OC(=O)C(C)C)[C@H](C)OC2=O)c1O,,bovine milk,-18 °C,,storage stability of residues,6 months
CN(O)C(=O)CCC(=O)NCCCN(CCCCN(CCCNC(=O)CCC(=O)N(C)O)C(=O)CCC(=O)N(C)O)C(=O)CCC(=O)N(C)O.[89Zr],,PBS,"3 days, pH 7, 37 °C",,intact compound,99.9 ± 0.1%
Cc1cc(-c2ccc(C(=O)[C@@H]3CCCC[C@H]3C(=O)Nc3cnn4c3C(=O)NCC4)cc2)[nH]n1,,"human, urine","oral, 200 mg, 6-12 h",relative to: dose,radioactivity recovery per interval,2.59% and 2.73% and 2.4% and 2.39% and 2.81% and 3.06%
O=C([O-])CN1CCN(CC(=O)[O-])CCN(CC(=O)NCC2CCC(C(=O)NC(Cc3ccc4ccccc4c3)C(=O)NCCCCC(NC(=O)NC(CCC(=O)O)C(=O)O)C(=O)O)CC2)CCN(CC(=O)[O-])CC1.[68Ga+3] (centres unmarked),micro-PET/CT,"mouse 22Rv1 xenograft, tumour",4 h post-injection,,maximum tumour uptake,9.27 ± 1.2 %ID/g
O=C(Nc1cnccc1-c1ccc([18F])nc1)c1ccnc(NC(=O)C2CC2)c1,,"FVB/NJ mouse, both sexes, liver","intravenous, 50 min, added: tariquidar 15 mg/kg iv",,SUV,8.44
CCCCC/C=C\CCCO[Si](CCCCN(C)C)(OCCC/C=C\CCCCC)OCCC/C=C\CCCCC,,,"pH 5.5, formulated",,zeta potential,2.69 mV
CC[C@H](C)[C@@H]1NC(=O)[C@H](Cc2ccc(O)cc2)NC(=O)CCCSC[C@@H](C(=O)N(CC(=O)N[C@@H](CC(C)C)C(=O)NCC(N)=O)Cc2ccc(F)cc2)NC(=O)[C@H](CC(N)=O)NC(=O)[C@H](CCC(N)=O)NC1=O,,"human, plasma","intranasal, single dose",relative to: intravenous,absolute bioavailability,3.7%
C/C(N)=N/C(=N\S(=O)(=O)c1ccc(C(F)(F)F)cc1)N1C[C@H](c2ccccc2)C(c2ccc(Cl)cc2)=N1,,"C57BL/6 mouse, lung","intravenous, 10 mg/kg",,Cmax,272000 ng/mL
N#Cc1ccnc(N2C(=O)CC[C@H]2C(=O)N(c2cc(F)cc(F)c2)[C@H](C(=O)NC2CC(F)(F)C2)c2ccccc2Cl)c1 (stereo in doubt),,"cynomolgus monkey, plasma",,,half-life,12.5 h
COc1cccc(OC)c1-c1cc(C(=O)NC2(C(=O)O)C3CC4CC(C3)CC2C4)nn1-c1ccc(C(=O)N(C)CCOCCN(C)C(=O)[C@H](CCCCNC(=O)[C@H](CC(C)C)NC(=O)C2OC2C(=O)O)NC(=O)CN2CCN(CC(=O)[O-])CCN(CC(=O)[O-])CCN(CC(=O)[O-])CC2)cc1C(C)C.[177Lu+3] (mixture of isomers),,mouse HT-29 xenograft,"24 h, biodistribution",relative to: tumour over small intestine,tumour-to-small intestine ratio,15.8
OC1(C(F)(F)F)CCN(c2nc(Nc3ccnc(C(F)(F)F)c3)nc(-c3cccc(C(F)(F)F)n3)n2)C1 (centres unmarked),,"monkey, plasma","oral, 10 mg/kg",,half-life,15.2 ± 6.6 h
CN(C)S(=O)(=O)c1ccc(S(=O)(=O)N2CCC(n3c(=O)[nH]c4ccccc43)CC2)cc1,HPLC,DMSO,"24 h, 20 °C",,solubility,~6700 µg/mL
CC1Cc2ccccc2N1C(=O)CN1CCN(Cc2ccccc2)CC1 (centres unmarked),,"female NMRI mice, whole blood","intraperitoneal, 10 mg/kg free base, 60 min",,concentration,86 ng/mL and 81 ng/mL
CC(C)(O)c1ncc([S@](N)(=O)=NC(=O)Nc2c3c(cc4c2CCC4)CCC3)s1,,human urine,-20 °C or below,,storage stability,≥ 130 days
COCCN(C)C(C)C(=O)NC(Cc1ccc(-c2ccccc2)cc1)B(O)O (centres unmarked),,Caco-2,,,Papp A→B,17 ×10⁻⁶ cm/s
Cc1ccc(OCC(=O)N(Cc2cccs2)c2ccn[nH]2)cc1,,pooled human liver microsomes,"10 µM, 20 min",relative to: time 0,remaining compound,33.9%
O=C(Nc1cnccc1-c1ccc([18F])cc1)c1ccnc(NC(=O)C2CC2)c1,,"FVB/NJ mice (both sexes), blood","intravenous, dose not given, 120 min",,SUV,0.15
COC(=O)c1ccccc1-c1c2ccc(=O)cc-2oc2c1ccc1cccc(N)c12,,aqueous HCl 10% DMSO,pH 1.9,,extinction coefficient,4000
Cl.NCc1ccc2c(c1)CN(C1CCC(=O)NC1=O)C2=O (centres unmarked),,"human, mixed sex, whole blood",3 h,,remaining compound,> 95%
CCC1CNC(CC)CN(C(C(=O)[O-])c2ccc(C(=O)[O-])cc2)C(CC)CN(CC(=O)[O-])C(CC)CN1.[Mn+2] (centres unmarked),ICP-MS,"BALB/c mice, kidney","intravenous, 0.05 mmol/kg, 30 min",relative to: injected dose,Mn uptake,1.37 ± 0.11%
CCN(CC)c1ccc(-c2oc3cc4ccccc4cc3c(=O)c2O)cc1,,DMSO,added: visible light 445-465 nm,,CO yield,1.01
CSCC[C@H](N)C(=O)N[C@@H](CO)C(=O)N[C@H](C(=O)N[C@@H](C)C(=O)NCC(=O)N[C@@H](CC(C)C)C(=O)N[C@@H](CCCCN)C(=O)N[C@@H](CCCCN)C(=O)N[C@@H](CCC(N)=O)C(=O)N[C@@H](Cc1c[nH]c2ccccc12)C(=O)N[C@@H](Cc1ccc(O)cc1)C(=O)N[C@@H](CCCCN)C(=O)N[C@@H](C)C(=O)N[C@@H](CO)C(=O)N[C@@H](CCC(N)=O)C(=O)N[C@@H](CC(C)C)C(=O)N[C@H](C(=O)N[C@@H](CO)C(=O)N[C@@H](CCC(=O)O)C(=O)N[C@@H](CCCCN)C(=O)N[C@H](C(=O)NCC(=O)NCC(=O)N[C@@H](C)C(N)=O)C(C)C)C(C)C)C(C)C,circular dichroism,25% DOPS/75% DOPC liposomes,1 mM lipid,,helical content,28%

# Some of these lines once more:
SMILES,assay,test system,conditions,scale,quantity,result
COc1cccc(OC)c1-c1cc(C(=O)NC2(C(=O)O)C3CC4CC(C3)CC2C4)nn1-c1ccc(C(=O)N(C)CCCN(C)CCCN(C)C(=O)[C@H](CCCCNC(=O)[C@H](CC(C)C)NC(=O)C2OC2C(=O)O)NC(=O)CN2CCN(CC(=O)[O-])CCN(CC(=O)[O-])CCN(CC(=O)[O-])CC2)cc1C(C)C.[177Lu+3] (mixture of isomers),,"mouse, HT-29 xenograft","4 h post injection, biodistribution",relative to: tumour over lung uptake,tumour-to-lung ratio,6.11
Cc1cc(-c2ccc(C(=O)[C@@H]3CCCC[C@H]3C(=O)Nc3cnn4c3C(=O)NCC4)cc2)[nH]n1,,"human, urine","oral, 200 mg, 6-12 h",relative to: dose,radioactivity recovery per interval,2.59% and 2.73% and 2.4% and 2.39% and 2.81% and 3.06%
